Values quoted from earlier work, collected from citations in different studies.
Compare with care: the assays were run in different laboratories.

| Structure (SMILES) | host | route | dose | time | together with | AUC |
| --- | --- | --- | --- | --- | --- | --- |
| OC(Cn1cncn1)(Cn1cncn1)c1ccc(F)cc1F | human | oral | 50 mg single dose | – | – | 41700 ng·h/mL |
| COc1ccc2nc([S@+]([O-])Cc3ncc(C)c(OC)c3C)[nH]c2c1 | Japanese non-obese humans | intravenous bolus | 20 mg racemic omeprazole | – | – | 293 ng⋅h/mL |
| Cc1cn(-c2cc(NC(=O)c3ccc(C)c(Nc4nccc(-c5cccnc5)n4)c3)cc(C(F)(F)F)c2)cn1 | human | – | 400 mg | – | – | 17500 ng·h/mL |
| O=C(c1cc(Cc2n[nH]c(=O)c3ccccc23)ccc1F)N1CCN(C(=O)C2CC2)CC1 | human | oral | 100 mg tablet, single dose | – | itraconazole 200 mg qd for 7 days | 40100 ng·h/mL |
| COCCCC/C(=N\OCCN)c1ccc(C(F)(F)F)cc1 | human | oral | 25 mg single dose | – | – | 98.4 ng·h/mL |
| Cc1cc2c(s1)Nc1ccccc1N=C2N1CCN(C)CC1 | human | oral | 10 mg | day 1 | – | 230 ng·h/mL |
| COc1cc(N2CCC(N3CCN(C)CC3)CC2)ccc1Nc1ncc(Cl)c(Nc2ccccc2P(C)(C)=O)n1 | human | – | 180 mg | – | – | 20300 ng·h/mL |
| Cn1cnc2c(F)c(Nc3ccc(Br)cc3Cl)c(C(=O)NOCCO)cc21 | human | – | 75 mg | – | rifampicin | 2200 ng·h/mL |
| Cc1nc(Nc2ncc(C(=O)Nc3c(C)cccc3Cl)s2)cc(N2CCN(CCO)CC2)n1 | human | – | 100 mg | – | – | 318 ng·h/mL |
| CCC(C)n1ncn(-c2ccc(N3CCN(c4ccc(OCC5COC(Cn6cncn6)(c6ccc(Cl)cc6Cl)O5)cc4)CC3)cc2)c1=O (stereo not shown) | human | oral | 200 mg single dose | – | – | 1820 ng·h/mL |

Repeated from above:
| Structure (SMILES) | host | route | dose | time | together with | AUC |
| --- | --- | --- | --- | --- | --- | --- |
| COc1cc(N2CCC(N3CCN(C)CC3)CC2)ccc1Nc1ncc(Cl)c(Nc2ccccc2P(C)(C)=O)n1 | human | – | 180 mg | – | – | 20300 ng·h/mL |
